Assay results from different studies.
Parts stem from different laboratories: compare values within a part only. Positions count from the first letter of the parent shown.

Series 1
Target: Histone acetyltransferase KAT6A, winged helix 2, GST fusion (KAT6A, Homo sapiens, UniProt Q92794, residues 85-181)
Method: protein binding microarray
Molecule type: double-stranded DNA, one strand shown
Medium: in vitro
Tested at: not given
Notes: 8-mer, flanks averaged, mean of 2 arrays, mostly near background
Reference: not given
Reading: higher = stronger binding
Construct (chain): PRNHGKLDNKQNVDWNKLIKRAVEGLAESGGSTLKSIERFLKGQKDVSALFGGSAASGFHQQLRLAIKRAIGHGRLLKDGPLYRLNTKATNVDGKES
| Sequence | E-score |
| --- | --- |
| CCTTGGCA | -0.0808 |
| AATTCGTA | 0.069 |
| ATCGCCGG | 0.187 |
| CACAGCTA | -0.0289 |
| ACTAACTA | -0.184 |
| ATGCCAAC | 0.0962 |
| AGCTCACC | 0.0688 |
| GCCTCTAC | -0.0469 |
| GTCATAGA | -0.0874 |
| CCCCACCC | 0.145 |
| TGAGCGAA | 0.116 |
| ATAACCTA | -0.112 |
| AATGTCTA | -0.0306 |
| CCGCAAGA | 0.249 |
| ATCTTGGC | -0.0934 |
| GTTTTTAA | 0.144 |
| ATAGTATC | 0.027 |
| AAGCTGGT | 0.124 |
| TGCCGACA | 0.0903 |
| AGCCGCTG | 0.0692 |
| ACGGAGCC | -0.00236 |
| GCAGCAGC | 0.13 |

Series 2
Target: Ras GTPase-activating protein-binding protein 1, full length (G3BP1, Homo sapiens, UniProt Q13283)
Chain of UniProt Q13283 (whole entry, looked up): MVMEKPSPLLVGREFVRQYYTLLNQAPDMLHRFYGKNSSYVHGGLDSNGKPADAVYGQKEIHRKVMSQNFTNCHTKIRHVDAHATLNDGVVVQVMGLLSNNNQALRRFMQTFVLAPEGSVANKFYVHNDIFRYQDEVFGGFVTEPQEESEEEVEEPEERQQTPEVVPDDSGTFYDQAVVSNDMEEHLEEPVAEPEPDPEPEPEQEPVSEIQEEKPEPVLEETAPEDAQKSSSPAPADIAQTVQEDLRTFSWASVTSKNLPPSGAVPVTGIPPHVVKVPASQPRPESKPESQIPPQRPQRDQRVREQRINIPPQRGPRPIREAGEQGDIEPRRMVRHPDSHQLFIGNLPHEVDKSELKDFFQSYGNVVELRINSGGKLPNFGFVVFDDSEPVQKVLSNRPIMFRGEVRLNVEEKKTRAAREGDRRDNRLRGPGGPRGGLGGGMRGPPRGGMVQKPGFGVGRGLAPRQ
Method: RNA Bind-n-Seq
Molecule type: RNA
Medium: in vitro
Tested at: 200 nM
Notes: whole 134-nt RNA, ends assumed
Together with: 150 mM LiCl
Reference: input library
Reading: higher = stronger binding
Library: 7-deaza-guanosine replaces G
Constant ends, left off below: GGGAGUUCUACAGUCCGACGAUC … UGGAAUUCUCGGGUGUCAAGG
| Sequence | log2 enrichment |
| --- | --- |
| CACAGACCACACGCACCCACACAGACACAGAGGGAAGGGGUUGGGAUGGGGACAGGGUGCACAGCAGGGCGGGGUAGGACCCCAGCCCCU | 0.242 |
| AAGUCCUGUGCUACACAUCGUAUGUACCGAAUCGGGGUUUGGGGUUUGGGGAGGGGAAAGUAUUAUGUUACGCCGUUCGGAUCUGCACUU | -0.123 |
| CUCAAGUCCUGUGCUACACAUCGUAUGUACCGAAUCGGGGUGGGGUGGGGUGGAAAGUAUUAUGUUACGCCGUUCGGAUCUGCACUUCCA | -1.03 |
| UCAAGUCCUGUGCUACACAUCGUAUGUACCGAAUCGGGGUGGGGUGGGGAGGGGAAAGUAUUAUGUUACGCCGUUCGGAUCUGCACUUCC | -0.521 |
| CAAGUCCUGUGCUACACAUCGUAUGUACCGAAUCGGGGAAGGGGAAGGGGAAGGGGAAAGUAUUAUGUUACGCCGUUCGGAUCUGCACUU | 0.0465 |
| UAACUUUAGAGGAGGAUCUGAUGGAUAUGGCAGUGGACGUGGAUUUGGGGAUGGCUAUAAUGGGUAUUGAGGAGGACCUGGAGGUGGCAA | -0.139 |
| UUAGGGUCAUGUGAAGGUGGUGCGCUACUUAGUCAAAGAAGUCAAUCAGUUUCCAUCAGAUUCUGAAUGUAUGAGAUACAUAGCAACCAU | -2.1 |
| UGGGAGGUGGAUUUUGUUUAUUUUUUUAGCUCAUUUCCGGGGGUGGGAAUUUUUUUUUAAUAUGUGUCAUGAAUAAAGUUGUUUUUGAAA | 0.336 |
| UCCUGUGCUACACAUCGUAUGUACCGAAUCGGGGAAAGGGGUUUGGGGUUUUUUUGGGGAAAGUAUUAUGUUACGCCGUUCGGAUCUGCA | -0.113 |
| CCUCAAGUCCUGUGCUACACAUCGUAUGUACCGAAUCGGGAGGGGAGGGAGGGAAAGUAUUAUGUUACGCCGUUCGGAUCUGCACUUCCA | 0.301 |
| UCCUGUGCUACACAUCGUAUGUACCGAAUCGGGGUUUUUGGGGAAAAAGGGGUUUGGGGAAAGUAUUAUGUUACGCCGUUCGGAUCUGCA | -0.803 |

Series 3
Target: RNA binding protein fox-1 homolog 2, RRM domain, GST-SBP tag (RBFOX2, Homo sapiens, UniProt O43251-10, residues 100-194)
Method: RNA Bind-n-Seq
Molecule type: RNA
Medium: in vitro
Tested at: 365 nM
Notes: natural RNA segment, single round, ends assumed
Reference: no-protein control
Reading: higher = stronger binding
Constant ends, left off below: GGGAGUUCUACAGUCCGACGAUC … UGGAAUUCUCGGGUGCCAA
Construct (chain): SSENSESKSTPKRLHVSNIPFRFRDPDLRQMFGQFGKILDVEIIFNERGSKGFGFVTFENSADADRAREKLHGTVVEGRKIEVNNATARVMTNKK
| Sequence | RBNS enrichment (R) |
| --- | --- |
| GGAACGAGGCAUCUGGAGCUUCCUACUCUCCAGUUUCUCUGUGGAAAUAAAACAUGACUCUUUGUUUCCCUGAGACUCUCUUGACUCCUUAUUCAAUACGACCCUGCUGA | 0.889 |
| AUGUUUUGCCACUUCUGCAGACUGAGAGACGUGUCAUUGGACAUGUGUAACCAUUUGAUAUCUGAGCAAUAGUGUCUCAGUUUAAUAAAAGCUUCCUAUAGUACAUUGGU | 0.701 |
| AGAGGCAUUAGACUAUUUUUUAGCUGCCCUCAUAAAUAUAUAACGAAUAGGUAAAUGCCAAUACCCAUACAGUUUUUCUAGUGGGGACAAAGGCCGUUUUAUUAGAAAUU | 0.443 |
| UCAGCUAGAUAUGAGCUAUGCAAGGAGCCAUAGGAAUAGCUAUAUGUUGGAAUGGCUUUAAUGUUGUUACAUUUGAGGGGGGAUGGAAAAUAAAGUGAUUAUAUAACUCU | 7.01 |
| CAGUUUCCCUCCCUUCUCCCUCCAUCCGCAGCCACAGGGGAACUCGUCUCUUACAUACUCUCAUCUUCUCCCCCGCUCCCUUCCACUCCAAGGAGCGAGGAGGGCAAGCG | 0.513 |
| ACCUGCCCUCUCUCCGGAUCAUUUUUCUAGAGCAAGCAGGCCAGACUUCAUCCUGCCUUUGUCUUCGAAGCUAUCAGGGAACUGCGGGGUCCCAAAUAUGAUAAUCACGU | 0.399 |
| AGGAGUUUCUAUAGCGAGACAUAGAAUAGUAUUCUGAUCAGUUGCCAAAGAAUCUAGGAAAUUAGUUGUAUUUUGUGCAAGCUAAUUUAAAAACAUGAUGGGCUGUUUUA | 0.641 |
| AGCGACUGAGCACACCCUCUGCCAGCACCUACUGGGGAAAGGAAAAGCCCCUGGAAAUGCGUGUGACCUGUGAAGUGGUGUAUUGUCACAGUAGCUUAUUUGAACUUGAG | 0.43 |
| UAGUUAUUUCCAAAUAAAAAGAAACCAACUCUUACCAGGUCUUGGACUGUGAUGUCAUAUUAUUCAGUUUUAUGCUUGUUCCUGAGCAGAACUCAUAAGAGUGACAUAGU | 0.289 |
| AGCAUUCUUGAUUCUUAGCGCUUUCGUGGUGCGUGUUUAUGAGAUAUUAGAACAGCGGAGGCUCUAAAAGCCCAGGAUUCUACUCAGUUAUGAAUGAAAAUCAAACGAAG | 0.313 |
| GGAGCUGGCCCCUGGCUGCCUGGAGGACCCUGGGUAGGUCCUGAGGGUGGGAUGGAGAAGAGGGCACUGCUGUGGUGUGGGAGCAGUCCUGGGGCUUCCUGGUGGCUGUG | 0.641 |
| GGCCCUGCUAGCGAGAGAGGUCAACCCCGGUGGCCAGGGAACCCACUUCCAAGCGCAGGGACGCCGGCCUCCAGCUGGUGUGUGCUAAGGCUCCGUCCUGACUGCCCUGU | 0.516 |

Series 4
Target: Interferon regulatory factor 5, full length, phosphomimetic (IRF5, Homo sapiens, UniProt Q13568-2, residues 1-514, K96S/S451D/S453D/S456D/S462D)
Method: protein-binding microarray
Molecule type: double-stranded DNA, one strand shown
Medium: in vitro
Tested at: 250 nM
Notes: 60-bp whole probe
Together with: salmon DNA 0.4 mg/ml
Reference: random background probes
Reading: higher = stronger binding
Constant ends, left off below: GCCTAGCAC … GTCTTGATTCGCTTGACGCTGCTG
| Sequence | log fluorescence [z-score] |
| --- | --- |
| AAGACCATCCTGTGTCTTAAAGTGCTA | -0.561 |
| CAAATACTCTTCCATGGAGAAGTGCTA | 0.354 |
| TTTCCTTTATGTACTCTCTACGTGCTA | 3.56 |
| TTGACTCTTTCTGTCAGTTTGTGCTAG | 3.57 |
| TTAGGTATCGGGTATAGGTTAGTGCTA | 3.8 |
| TTAGGTATCGACTTCCGGTTAGTGCTA | 4.25 |
| GAACTTTGGCCTCTAGGTTTGTGCTAG | -0.439 |
| TTAGGTTCCGGGTTTCGGTTAGTGCTA | 7.13 |
| TTAGAACTGGGACTGGGTTAGTGCTAG | -0.354 |
| GACGGCCTCGGACTGGGGACGTGCTAG | -0.661 |
| TCAAAACTCTTTATTTAACTGTGCTAG | 0.709 |
| TCATTTAGTAGTTTCTAACTGTGCTAG | 1.16 |
| GACGGACTGGGTATAGGGACGTGCTAG | -0.619 |
| TTAGGTATAGACTATCGGTTAGTGCTA | 5.66 |
| GACGATATCAGTCTGGAGACGTGCTAG | 0.947 |
| GACCATATCAGTATCGAGACGTGCTAG | 2.68 |

Series 5
Target: CCNE2, cyclin fold, Cln2 fusion (human)
Method: yeast growth competition, sequencing
Medium: yeast
Notes: weak parent motif
Reference: not given
Reading: higher = stronger binding
Parent: CDC6 docking peptide (human); TLKGRRLVFDNQL
| Substitution | normalised enrichment score |
| --- | --- |
| G4W | 0.477 |
| L13C | 0.863 |
| L7M | 0.473 |
| L2F | -0.105 |
| R5L | -0.0883 |
| K3C | 0.591 |
| V8S | 0.298 |
| G4L | 0.349 |
| K3W | -1.63 |
| L7S | 0.183 |
| L2P | 0.574 |
| T1M | -0.00485 |
| V8P | 0.496 |
| R5C | -0.0259 |
| N11L | 0.1 |
| T1C | 0.883 |
